Published values of several laboratories.
Compare with care: the assays were run in different laboratories. Numbers after ± are the reported error.
GRM2: Metabotropic glutamate receptor 2 (GRM2, Homo sapiens, UniProt Q14416)
Sequence of UniProt Q14416 (whole entry, looked up): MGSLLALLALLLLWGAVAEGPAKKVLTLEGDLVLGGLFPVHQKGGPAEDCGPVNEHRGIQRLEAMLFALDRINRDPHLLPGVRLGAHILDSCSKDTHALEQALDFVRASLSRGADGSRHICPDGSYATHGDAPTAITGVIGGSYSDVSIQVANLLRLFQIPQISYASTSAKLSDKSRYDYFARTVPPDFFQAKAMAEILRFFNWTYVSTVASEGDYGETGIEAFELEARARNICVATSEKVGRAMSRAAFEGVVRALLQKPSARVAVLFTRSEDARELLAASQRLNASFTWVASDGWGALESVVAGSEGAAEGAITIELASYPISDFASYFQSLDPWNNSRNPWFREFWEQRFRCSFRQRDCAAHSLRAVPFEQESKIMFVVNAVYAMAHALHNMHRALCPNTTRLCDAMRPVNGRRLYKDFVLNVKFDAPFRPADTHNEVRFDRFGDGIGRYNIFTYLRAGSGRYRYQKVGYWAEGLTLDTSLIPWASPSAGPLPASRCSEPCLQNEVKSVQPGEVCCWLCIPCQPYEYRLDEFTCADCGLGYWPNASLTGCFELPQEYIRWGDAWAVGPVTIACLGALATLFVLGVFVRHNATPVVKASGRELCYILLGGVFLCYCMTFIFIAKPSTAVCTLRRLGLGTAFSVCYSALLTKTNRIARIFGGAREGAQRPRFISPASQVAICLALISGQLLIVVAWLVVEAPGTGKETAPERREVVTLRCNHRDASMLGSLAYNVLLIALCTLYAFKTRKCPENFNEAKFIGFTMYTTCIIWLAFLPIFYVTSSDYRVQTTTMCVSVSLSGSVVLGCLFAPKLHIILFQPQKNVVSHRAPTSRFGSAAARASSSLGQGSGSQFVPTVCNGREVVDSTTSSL
Sequence of UniProt P54764 (whole entry, looked up): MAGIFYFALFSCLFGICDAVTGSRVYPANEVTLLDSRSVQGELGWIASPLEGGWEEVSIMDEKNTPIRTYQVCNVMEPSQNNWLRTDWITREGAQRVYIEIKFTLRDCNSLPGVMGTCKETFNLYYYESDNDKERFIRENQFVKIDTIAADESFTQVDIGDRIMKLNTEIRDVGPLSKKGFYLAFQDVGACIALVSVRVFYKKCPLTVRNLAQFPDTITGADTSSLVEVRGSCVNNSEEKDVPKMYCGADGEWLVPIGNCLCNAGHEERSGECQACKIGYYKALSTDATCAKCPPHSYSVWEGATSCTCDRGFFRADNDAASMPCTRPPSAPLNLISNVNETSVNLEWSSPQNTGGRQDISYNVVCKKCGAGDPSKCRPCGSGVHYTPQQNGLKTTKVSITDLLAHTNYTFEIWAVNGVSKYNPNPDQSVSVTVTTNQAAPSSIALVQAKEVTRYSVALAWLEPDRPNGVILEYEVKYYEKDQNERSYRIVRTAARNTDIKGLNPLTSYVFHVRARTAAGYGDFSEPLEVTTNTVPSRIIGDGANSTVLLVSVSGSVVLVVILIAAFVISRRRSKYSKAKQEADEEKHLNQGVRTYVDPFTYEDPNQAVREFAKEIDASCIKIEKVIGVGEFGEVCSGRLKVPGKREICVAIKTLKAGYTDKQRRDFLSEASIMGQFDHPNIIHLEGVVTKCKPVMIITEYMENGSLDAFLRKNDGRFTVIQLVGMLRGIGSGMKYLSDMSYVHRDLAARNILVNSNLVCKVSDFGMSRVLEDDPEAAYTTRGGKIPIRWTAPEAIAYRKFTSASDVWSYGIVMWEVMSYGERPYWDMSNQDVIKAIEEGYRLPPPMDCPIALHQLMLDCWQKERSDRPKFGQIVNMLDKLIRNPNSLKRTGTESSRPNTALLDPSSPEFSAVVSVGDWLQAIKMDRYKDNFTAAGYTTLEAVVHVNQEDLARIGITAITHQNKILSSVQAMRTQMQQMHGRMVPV
Sequence of UniProt P00747 (whole entry, looked up): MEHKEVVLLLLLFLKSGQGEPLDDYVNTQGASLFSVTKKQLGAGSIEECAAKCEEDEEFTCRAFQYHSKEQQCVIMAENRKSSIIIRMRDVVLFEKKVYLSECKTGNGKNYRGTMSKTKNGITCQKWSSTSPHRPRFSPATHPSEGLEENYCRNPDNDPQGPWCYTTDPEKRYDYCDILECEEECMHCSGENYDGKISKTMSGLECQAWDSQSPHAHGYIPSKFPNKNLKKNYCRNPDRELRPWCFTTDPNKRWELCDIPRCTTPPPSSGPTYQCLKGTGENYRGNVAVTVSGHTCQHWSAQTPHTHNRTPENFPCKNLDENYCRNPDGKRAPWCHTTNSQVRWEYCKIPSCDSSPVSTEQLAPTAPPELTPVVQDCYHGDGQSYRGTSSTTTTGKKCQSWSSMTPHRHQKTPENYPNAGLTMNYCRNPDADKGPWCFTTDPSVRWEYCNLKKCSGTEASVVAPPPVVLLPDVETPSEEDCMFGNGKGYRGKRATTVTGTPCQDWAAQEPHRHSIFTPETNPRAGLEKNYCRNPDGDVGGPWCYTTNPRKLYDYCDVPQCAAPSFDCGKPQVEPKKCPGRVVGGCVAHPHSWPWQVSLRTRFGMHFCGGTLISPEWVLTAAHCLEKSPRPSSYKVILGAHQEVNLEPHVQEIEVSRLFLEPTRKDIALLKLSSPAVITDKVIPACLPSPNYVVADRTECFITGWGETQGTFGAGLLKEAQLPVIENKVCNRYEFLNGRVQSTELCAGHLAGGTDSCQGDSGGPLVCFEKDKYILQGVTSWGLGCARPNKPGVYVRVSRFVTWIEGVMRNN

CCCCn1ccn2c(-c3ccc(Oc4ccc(C)nc4C)c(F)c3)c(C)nc2c1=O gave an Emax of 248 ± 14% (GRM2; GTPγS binding, positive allosteric modulator; with: EC20 glutamate; reference: control glutamate response).
O=C(CSc1nc2ccccc2cc1C=Nn1c(S)nnc1-c1ccccc1)Nc1ccc(Cl)cc1 gave an IC50 of 116 µM (DPPH scavenging).
CCCC(CCC)C(=O)O gave a Racine score of 2.1 ± 0.57 (mouse, pilocarpine-induced seizures; oral, 300 mg/kg, 30 min after pilocarpine; direction not given).
With COCCOCCOCCOCCOCCOCCOCCOCCOCCOCCOCCOCCOCCC(=O)NCc1ccc(C(=N)N)cc1 the Ki was 360 µM (Plasminogen (PLG, Homo sapiens, UniProt P00747); enzyme activity, inhibitor, absorbance; pH 7.4).
With `meglumine antimoniate` the apoptotic cells was 30.1% (Leishmania major; annexin V/PI flow cytometry; promastigote; IC50).
For `APYCVYRASWSCGGKG (designed peptide; β-Ala1, β-Ala8, lauric acid on C-terminal Lys, disulfide cyclic)`, the IC50 was 0.025 µM (EPHA4 20-547 (Homo sapiens, UniProt P54764); competition with ligand, competitor, ELISA; peptide; pH 7.5, NaCl 150 mM, with: ephrin-A5 0.05 nM).
For O=C(CSc1nc2ccccc2cc1C=Nn1c(S)nnc1-c1ccccc1)NCCc1ccccc1, the IC50 was 102 µM (DPPH scavenging).
CCCCn1ccn2c(-c3ccc(NCc4ccc(OC)nc4)cc3)c(C)nc2c1=O gave an EC50 of 0.073 µM (GRM2; GTPγS binding, positive allosteric modulator; with: EC20 glutamate).

Repeated from above:
CCCC(CCC)C(=O)O gave a Racine score of 2.1 ± 0.57 (mouse, pilocarpine-induced seizures; oral, 300 mg/kg, 30 min after pilocarpine; direction not given).
